Experimental data gathered from unrelated publications.
Numbered parts are unrelated; each lists some results of a single study.
Chain of UniProt Q16816 (whole entry, looked up): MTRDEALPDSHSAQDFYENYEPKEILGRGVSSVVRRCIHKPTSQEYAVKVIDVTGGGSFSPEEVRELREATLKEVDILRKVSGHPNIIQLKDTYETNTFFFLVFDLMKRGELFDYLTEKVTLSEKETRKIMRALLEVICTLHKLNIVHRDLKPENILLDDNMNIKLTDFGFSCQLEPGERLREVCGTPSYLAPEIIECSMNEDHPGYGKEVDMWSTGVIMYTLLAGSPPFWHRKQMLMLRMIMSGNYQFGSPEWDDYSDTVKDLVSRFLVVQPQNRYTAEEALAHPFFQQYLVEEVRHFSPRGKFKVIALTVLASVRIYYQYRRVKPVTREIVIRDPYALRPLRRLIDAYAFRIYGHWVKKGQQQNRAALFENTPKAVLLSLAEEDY
Chain of UniProt P51956 (whole entry, looked up): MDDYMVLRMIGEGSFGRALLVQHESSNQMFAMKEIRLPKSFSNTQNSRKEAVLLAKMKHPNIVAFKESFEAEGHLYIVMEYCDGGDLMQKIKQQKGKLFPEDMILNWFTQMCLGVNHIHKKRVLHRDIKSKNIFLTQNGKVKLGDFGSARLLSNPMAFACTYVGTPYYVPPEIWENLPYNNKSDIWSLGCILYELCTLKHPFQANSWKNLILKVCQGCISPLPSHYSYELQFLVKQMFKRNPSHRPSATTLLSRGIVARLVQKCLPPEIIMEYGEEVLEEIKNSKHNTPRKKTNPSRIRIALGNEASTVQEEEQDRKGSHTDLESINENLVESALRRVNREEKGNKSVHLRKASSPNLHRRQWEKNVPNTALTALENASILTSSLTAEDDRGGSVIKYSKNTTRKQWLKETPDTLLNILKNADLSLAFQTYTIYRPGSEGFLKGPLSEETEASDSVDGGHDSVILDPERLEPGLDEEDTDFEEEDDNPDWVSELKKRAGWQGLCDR
Chain of UniProt O43781 (whole entry, looked up): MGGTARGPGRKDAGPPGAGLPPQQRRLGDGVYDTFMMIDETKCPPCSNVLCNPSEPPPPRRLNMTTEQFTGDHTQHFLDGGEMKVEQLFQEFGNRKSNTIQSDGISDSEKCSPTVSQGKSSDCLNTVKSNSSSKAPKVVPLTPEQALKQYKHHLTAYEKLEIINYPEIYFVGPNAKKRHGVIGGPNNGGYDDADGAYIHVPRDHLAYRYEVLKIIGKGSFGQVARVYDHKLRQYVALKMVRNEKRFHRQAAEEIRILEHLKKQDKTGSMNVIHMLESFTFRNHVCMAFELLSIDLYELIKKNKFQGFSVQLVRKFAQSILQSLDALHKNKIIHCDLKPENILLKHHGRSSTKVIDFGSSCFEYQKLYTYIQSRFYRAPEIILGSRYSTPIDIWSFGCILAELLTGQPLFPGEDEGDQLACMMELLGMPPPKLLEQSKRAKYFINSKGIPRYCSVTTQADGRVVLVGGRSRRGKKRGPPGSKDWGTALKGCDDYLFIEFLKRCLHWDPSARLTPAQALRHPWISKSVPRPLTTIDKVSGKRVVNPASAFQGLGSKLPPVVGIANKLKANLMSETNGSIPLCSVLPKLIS
Chain of UniProt Q9BWU1 (whole entry, looked up): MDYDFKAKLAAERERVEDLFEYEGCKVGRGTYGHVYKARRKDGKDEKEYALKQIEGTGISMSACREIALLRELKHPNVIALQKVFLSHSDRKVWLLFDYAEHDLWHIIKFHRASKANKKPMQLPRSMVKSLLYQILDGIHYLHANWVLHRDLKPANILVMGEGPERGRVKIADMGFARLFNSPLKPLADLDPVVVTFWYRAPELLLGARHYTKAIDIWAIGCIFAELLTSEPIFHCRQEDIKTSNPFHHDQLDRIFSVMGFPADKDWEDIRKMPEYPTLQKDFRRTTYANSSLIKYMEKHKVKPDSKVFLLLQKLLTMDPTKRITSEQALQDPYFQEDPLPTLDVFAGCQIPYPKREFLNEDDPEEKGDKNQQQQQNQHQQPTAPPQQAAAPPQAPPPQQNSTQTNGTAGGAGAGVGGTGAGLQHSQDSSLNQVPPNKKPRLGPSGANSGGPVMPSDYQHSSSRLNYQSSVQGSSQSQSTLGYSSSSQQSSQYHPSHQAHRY
Chain of UniProt Q15349 (whole entry, looked up): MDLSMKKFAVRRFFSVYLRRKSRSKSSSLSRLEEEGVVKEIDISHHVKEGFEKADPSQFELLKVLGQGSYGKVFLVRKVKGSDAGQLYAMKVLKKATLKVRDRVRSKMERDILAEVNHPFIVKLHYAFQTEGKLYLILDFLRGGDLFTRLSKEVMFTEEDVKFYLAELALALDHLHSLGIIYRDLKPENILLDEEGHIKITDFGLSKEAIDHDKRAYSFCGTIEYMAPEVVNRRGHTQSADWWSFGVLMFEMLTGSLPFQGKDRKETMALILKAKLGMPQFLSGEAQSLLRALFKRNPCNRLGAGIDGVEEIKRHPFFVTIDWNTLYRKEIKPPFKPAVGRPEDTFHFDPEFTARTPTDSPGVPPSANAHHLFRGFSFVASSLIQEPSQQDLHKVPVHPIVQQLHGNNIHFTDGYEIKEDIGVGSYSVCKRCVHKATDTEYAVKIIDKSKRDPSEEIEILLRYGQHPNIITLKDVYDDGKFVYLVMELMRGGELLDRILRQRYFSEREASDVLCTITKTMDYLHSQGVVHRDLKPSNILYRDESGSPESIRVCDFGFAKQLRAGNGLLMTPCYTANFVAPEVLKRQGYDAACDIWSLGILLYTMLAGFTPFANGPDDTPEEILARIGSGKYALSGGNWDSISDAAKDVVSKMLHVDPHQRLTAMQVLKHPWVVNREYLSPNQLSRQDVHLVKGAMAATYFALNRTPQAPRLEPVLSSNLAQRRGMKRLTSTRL
Chain of UniProt Q00534 (whole entry, looked up): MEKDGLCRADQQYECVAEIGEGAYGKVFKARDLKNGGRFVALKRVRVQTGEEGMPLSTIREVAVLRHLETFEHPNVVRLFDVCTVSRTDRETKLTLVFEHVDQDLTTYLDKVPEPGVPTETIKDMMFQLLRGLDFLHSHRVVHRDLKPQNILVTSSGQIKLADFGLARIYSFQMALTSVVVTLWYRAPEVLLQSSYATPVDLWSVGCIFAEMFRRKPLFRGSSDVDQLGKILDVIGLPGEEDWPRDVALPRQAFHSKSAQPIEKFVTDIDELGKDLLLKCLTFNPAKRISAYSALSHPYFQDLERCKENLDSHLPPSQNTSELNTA
Chain of UniProt Q13470 (whole entry, looked up): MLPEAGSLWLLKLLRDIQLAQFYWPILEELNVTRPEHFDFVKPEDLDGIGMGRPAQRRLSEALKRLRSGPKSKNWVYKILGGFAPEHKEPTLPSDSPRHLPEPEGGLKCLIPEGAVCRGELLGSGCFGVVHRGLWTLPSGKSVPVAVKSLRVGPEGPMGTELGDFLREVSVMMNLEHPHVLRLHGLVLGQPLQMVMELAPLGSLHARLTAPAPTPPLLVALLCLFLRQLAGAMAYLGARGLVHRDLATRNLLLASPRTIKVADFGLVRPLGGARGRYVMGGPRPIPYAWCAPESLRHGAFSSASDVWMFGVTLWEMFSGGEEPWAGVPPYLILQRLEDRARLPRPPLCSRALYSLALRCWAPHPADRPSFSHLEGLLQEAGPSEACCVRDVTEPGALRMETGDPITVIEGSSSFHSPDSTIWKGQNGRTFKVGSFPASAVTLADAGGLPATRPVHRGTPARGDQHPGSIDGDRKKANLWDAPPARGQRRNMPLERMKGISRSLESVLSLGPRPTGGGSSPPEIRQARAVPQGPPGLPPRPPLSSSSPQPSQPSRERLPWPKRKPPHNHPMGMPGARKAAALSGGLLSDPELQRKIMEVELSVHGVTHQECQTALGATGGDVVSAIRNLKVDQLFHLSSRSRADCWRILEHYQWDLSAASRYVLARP
Chain of UniProt P54760 (whole entry, looked up): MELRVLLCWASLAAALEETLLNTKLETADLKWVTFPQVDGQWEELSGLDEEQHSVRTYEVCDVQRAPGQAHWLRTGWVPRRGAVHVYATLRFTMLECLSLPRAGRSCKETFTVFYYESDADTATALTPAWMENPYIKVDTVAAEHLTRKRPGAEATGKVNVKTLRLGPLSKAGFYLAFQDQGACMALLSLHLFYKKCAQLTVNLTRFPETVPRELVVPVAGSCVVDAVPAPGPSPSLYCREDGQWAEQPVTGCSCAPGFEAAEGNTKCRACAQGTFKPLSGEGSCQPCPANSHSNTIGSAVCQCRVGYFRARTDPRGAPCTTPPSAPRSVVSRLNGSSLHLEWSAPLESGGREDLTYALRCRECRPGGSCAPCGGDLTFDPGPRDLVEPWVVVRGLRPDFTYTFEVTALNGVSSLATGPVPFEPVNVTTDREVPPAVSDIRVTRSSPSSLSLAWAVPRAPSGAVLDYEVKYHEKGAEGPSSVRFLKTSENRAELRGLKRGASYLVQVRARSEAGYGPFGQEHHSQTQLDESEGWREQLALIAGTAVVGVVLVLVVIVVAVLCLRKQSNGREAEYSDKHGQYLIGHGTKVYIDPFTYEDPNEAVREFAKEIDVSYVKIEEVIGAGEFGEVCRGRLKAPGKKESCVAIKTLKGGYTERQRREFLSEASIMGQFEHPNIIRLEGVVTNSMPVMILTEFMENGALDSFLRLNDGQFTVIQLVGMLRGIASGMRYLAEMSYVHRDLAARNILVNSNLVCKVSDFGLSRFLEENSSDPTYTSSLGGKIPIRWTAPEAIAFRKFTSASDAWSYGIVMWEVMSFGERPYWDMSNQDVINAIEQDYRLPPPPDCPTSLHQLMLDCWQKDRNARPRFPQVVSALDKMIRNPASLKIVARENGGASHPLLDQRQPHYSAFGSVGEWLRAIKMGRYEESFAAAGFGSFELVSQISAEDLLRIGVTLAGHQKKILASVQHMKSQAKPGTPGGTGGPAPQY
Chain of UniProt O75716 (whole entry, looked up): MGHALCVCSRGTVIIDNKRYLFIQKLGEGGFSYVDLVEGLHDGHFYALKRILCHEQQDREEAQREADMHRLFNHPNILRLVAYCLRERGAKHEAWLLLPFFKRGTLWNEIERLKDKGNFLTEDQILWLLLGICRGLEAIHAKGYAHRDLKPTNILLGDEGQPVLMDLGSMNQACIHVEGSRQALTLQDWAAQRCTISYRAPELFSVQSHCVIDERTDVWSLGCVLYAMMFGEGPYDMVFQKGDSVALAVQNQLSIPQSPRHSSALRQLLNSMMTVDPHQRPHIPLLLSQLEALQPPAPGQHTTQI

Block 1
Matrix: 1,9-decadiene/PBS
pH: 7.4
Measurement: logD
CC(C)C[C@@H]1NC(=O)[C@H](CC(C)C)NC(=O)[C@H](CC(C)C)NC(=O)[C@H](CC(C)C)NC(=O)[C@H](C(C)C)NC(=O)[C@H](Cc2cscn2)NC(=O)[C@H](C)NC1=O: 0.266
CC(C)C[C@@H]1NC(=O)[C@H](CC(C)C)NC(=O)[C@@H](C(C)C)NC(=O)[C@H](C(C)C)NC(=O)[C@@H](Cc2cscn2)NC(=O)[C@H](C)NC(=O)[C@H](CCC(=O)N2CCCC2)NC1=O: -2.84
CC(C)C[C@@H]1NC(=O)[C@H](C(C)C)NC(=O)[C@H](CCC(=O)N2CCCC2)NC(=O)[C@H](CC(C)C)NC(=O)[C@@H](CCC(=O)N2CCCC2)NC(=O)[C@H](CC(C)C)NC(=O)[C@@H](CC(C)C)NC1=O: -0.827
CC(C)C[C@@H]1NC(=O)[C@H](C(C)C)NC(=O)[C@H](CC(C)C)NC(=O)[C@@H](CC(C)C)NC(=O)[C@H](CC(C)C)NC(=O)[C@@H](C)NC(=O)[C@@H](CC(C)C)NC1=O: 1.21
CC(C)C[C@@H]1NC(=O)[C@H](CC(C)C)NC(=O)[C@H](CC(C)C)NC(=O)[C@@H](C)NC(=O)[C@H](C)NC(=O)[C@@H](CC(C)C)NC(=O)[C@H](C)NC1=O: -1.8
CC(C)C[C@@H]1NC(=O)[C@H](CC(C)C)NC(=O)[C@@H](C(C)C)NC(=O)[C@H](CC(C)C)NC(=O)[C@H](C(C)C)NC(=O)[C@H](C)NC(=O)[C@H](C)NC1=O: -0.466
CC(C)C[C@@H]1NC(=O)[C@H](CC(C)C)NC(=O)[C@H](CC(C)C)NC(=O)[C@H](CC(C)C)NC(=O)[C@H](C(C)C)NC(=O)[C@H](C)NC(=O)[C@H](C)NC1=O: -0.257

Block 2
SMILES: C[C@@H]1CN(c2cc(-c3n[nH]c4ccc(OC5(C)CC5)cc34)ncn2)C[C@H](C)O1
Tested at: 0.1 µM
Measurement: remaining binding
MAP3K5 (Homo sapiens, UniProt Q99683); cell-free assay, competition with immobilised ligand: 88%
LYN (Homo sapiens, UniProt P07948); cell-free assay, competition with immobilised ligand: 98%
Ribosomal protein S6 kinase alpha-2, N-terminal kinase domain (RPS6KA2, Homo sapiens, UniProt Q15349); cell-free assay, competition with immobilised ligand: 92%
ROS1 (Homo sapiens, UniProt P08922); cell-free assay, competition with immobilised ligand: 100%
PHKG1 (Homo sapiens, UniProt Q16816); cell-free assay, competition with immobilised ligand: 100%
AKT2 (Homo sapiens, UniProt P31751); cell-free assay, competition with immobilised ligand: 100%
BMP2K (Homo sapiens, UniProt Q9NSY1); cell-free assay, competition with immobilised ligand: 100%
RET (Homo sapiens, UniProt P07949); cell-free assay, competition with immobilised ligand: 100%
STK26 (Homo sapiens, UniProt Q9P289); cell-free assay, competition with immobilised ligand: 76%
PAK1 (Homo sapiens, UniProt Q13153); cell-free assay, competition with immobilised ligand: 97%
Tyrosine-protein kinase ABL1, phosphorylated (ABL1, Homo sapiens, UniProt P00519, Q252H); cell-free assay, competition with immobilised ligand: 64%
NEK3 (Homo sapiens, UniProt P51956); cell-free assay, competition with immobilised ligand: 76%
STK17A (Homo sapiens, UniProt Q9UEE5); cell-free assay, competition with immobilised ligand: 100%
TNK1 (Homo sapiens, UniProt Q13470); cell-free assay, competition with immobilised ligand: 76%
ERBB4 (Homo sapiens, UniProt Q15303); cell-free assay, competition with immobilised ligand: 90%
DCLK1 (Homo sapiens, UniProt O15075); cell-free assay, competition with immobilised ligand: 81%
TYRO3 (Homo sapiens, UniProt Q06418); cell-free assay, competition with immobilised ligand: 100%
PIK3CA (Homo sapiens, UniProt P42336); cell-free assay, competition with immobilised ligand: 100%
NUAK1 (Homo sapiens, UniProt O60285); cell-free assay, competition with immobilised ligand: 92%
SNRK (Homo sapiens, UniProt Q9NRH2); cell-free assay, competition with immobilised ligand: 94%
EGFR (Homo sapiens, UniProt P00533, del746-750); cell-free assay, competition with immobilised ligand: 51%
CDK19 (Homo sapiens, UniProt Q9BWU1); competition binding: 70%

Block 3
SMILES: O=C1NC(=O)/C(=C/c2ccc3nccnc3c2)S1
Read-out: enzyme activity
Mode: inhibitor
Tested at: 0.5 µM
Baseline: control
Measurement: remaining activity
PRKACG (Homo sapiens, UniProt P22612): 99.6%
STK16 (Homo sapiens, UniProt O75716): 91.9%
Cyclin-dependent kinase 6, with cyclin D3 (CDK6, Homo sapiens, UniProt Q00534): 95.8%
PHKG1 (Homo sapiens, UniProt Q16816): 91.3%
DYRK3 (Homo sapiens, UniProt O43781): 71.5%
MAPKAPK3 (Homo sapiens, UniProt Q16644): 104%
CAMK2B (Homo sapiens, UniProt Q13554): 89.3%
EPHB4 (Homo sapiens, UniProt P54760): 101%

Block 4
SMILES: CC(=O)N[C@@H](Cc1c[nH]c2ccccc12)C(=O)N[C@@H](CCC(=O)C=[N+]=[N-])C(=O)OC(C)C
Matrix: EL4 tumour
Baseline: vehicle
Measurement: fold change
refers to: indolepropionate; mouse, EL4 tumour-bearing; dose not given: 2.16
refers to: guanine; mouse, EL4 tumour-bearing; dose not given: 0.434
refers to: hypotaurine; mouse, EL4 tumour-bearing; dose not given: 0.214
refers to: 4-methyl-2-oxopentanoate; mouse, EL4 tumour-bearing; dose not given: 2.73
refers to: FGAR; mouse, EL4 tumour-bearing; dose not given: 17.3
metabolomics, refers to: thiamin monophosphate; mouse; subcutaneous, 0.3 mg/kg DON equivalent, 120 h, dosed for 5 days: 2.13

Block 5
Host: human
Matrix: microsomes or S9
Tested at: 2 µM
Time: 0.5 h
Measurement: remaining compound
CC(C)=CCN1CCN(c2nc3ccccc3s2)CC1CCO (stereo not drawn): 0.0149%
CCN(CC)CC/C=C/C1(O)c2ccccc2-c2ccccc21: 82.1%
O=S1(=O)c2cccc3cccc(c23)N1CCc1ccccc1: 83.7%
CC(C)n1nc(-c2nnc(-c3cccc(Br)c3)[nH]2)c2ccccc2c1=O: > 100%
Oc1cc(Nc2cccc(Br)c2)nc(O)n1: 76.5%
CC(Nc1ncc(Cl)cn1)C(C)n1cncn1 (stereo not drawn): 96.8%
Cc1cc(-c2ccc(S(=O)(=O)N3CCOc4ccccc43)s2)n[nH]1: 5.14%
Fc1cc(F)cc(-c2noc3ncnc(Nc4ccc(-c5ccno5)cc4)c23)c1: 26.4%

Excerpt of the above (block 2):
LYN (Homo sapiens, UniProt P07948); cell-free assay, competition with immobilised ligand: 98%
Ribosomal protein S6 kinase alpha-2, N-terminal kinase domain (RPS6KA2, Homo sapiens, UniProt Q15349); cell-free assay, competition with immobilised ligand: 92%
ROS1 (Homo sapiens, UniProt P08922); cell-free assay, competition with immobilised ligand: 100%
PHKG1 (Homo sapiens, UniProt Q16816); cell-free assay, competition with immobilised ligand: 100%
AKT2 (Homo sapiens, UniProt P31751); cell-free assay, competition with immobilised ligand: 100%
BMP2K (Homo sapiens, UniProt Q9NSY1); cell-free assay, competition with immobilised ligand: 100%
